# Published values from different studies.
# Parts stem from different laboratories: compare values within a part only.

# Study 1 — technique: protein binding microarray; molecule type: double-stranded DNA, one strand shown; matrix: in vitro; concentration: not given; reference: not given; direction: higher = stronger binding
# Target: Histone acetyltransferase KAT6A, winged helix 2, GST fusion (KAT6A, Homo sapiens, UniProt Q92794, residues 85-181)
# Notes: 8-mer, flanks averaged, mean of 2 arrays, mostly near background
# Target sequence (chain): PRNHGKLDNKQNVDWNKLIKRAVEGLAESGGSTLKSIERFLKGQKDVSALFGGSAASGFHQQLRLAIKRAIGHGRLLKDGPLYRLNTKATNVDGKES
Strand,E-score
ACGAGAAT,-0.0782
ATCTTCCC,0.0478
CACCAACA,-0.0832
AACAGCCG,-0.0818
CGACTCCG,-0.0256
CGGATGTA,-0.0749
AGCCAACG,-0.048
ACTCGAAG,-0.0293
AACACAGC,0.058
CGGCGCCC,0.188
GCCATTCA,-0.0597
AGCAACCA,0.192
CCACCACA,-0.139
AGCGGGAG,-0.0615
CCCTCAAA,0.0624
TCCTGGCA,0.0656
CGCGCTTA,-0.00911

# Study 2 — technique: RNA Bind-n-Seq; molecule type: RNA; matrix: in vitro; concentration: 200 nM; notes: whole 134-nt RNA, ends assumed; added: 150 mM LiCl; reference: input library; direction: higher = stronger binding; library: 7-deaza-guanosine replaces G
# Target: Ras GTPase-activating protein-binding protein 1, full length (G3BP1, Homo sapiens, UniProt Q13283)
# Sequence of UniProt Q13283 (whole entry, looked up): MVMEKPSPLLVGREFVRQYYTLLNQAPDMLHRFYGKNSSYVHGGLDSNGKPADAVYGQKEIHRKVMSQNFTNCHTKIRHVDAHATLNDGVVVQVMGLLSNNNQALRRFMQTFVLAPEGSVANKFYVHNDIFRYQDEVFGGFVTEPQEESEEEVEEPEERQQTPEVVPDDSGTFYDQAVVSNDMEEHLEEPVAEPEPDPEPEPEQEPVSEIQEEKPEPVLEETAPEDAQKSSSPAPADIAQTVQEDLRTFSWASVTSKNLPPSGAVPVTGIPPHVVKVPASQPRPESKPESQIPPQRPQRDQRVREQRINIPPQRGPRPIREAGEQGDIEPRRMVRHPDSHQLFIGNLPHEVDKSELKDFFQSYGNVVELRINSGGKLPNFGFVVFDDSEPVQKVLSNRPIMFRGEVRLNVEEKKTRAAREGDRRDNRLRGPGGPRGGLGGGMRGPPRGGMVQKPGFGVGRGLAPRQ
# Shared flanks, not repeated: GGGAGUUCUACAGUCCGACGAUC … UGGAAUUCUCGGGUGUCAAGG
Strand,log2 enrichment
UCAAGUCCUGUGCUACACAUCGUAUGUACCGAAUCGGGAAGGGGAAGGGGAAGGGAAAGUAUUAUGUUACGCCGUUCGGAUCUGCACUUC,-0.221
UAACUUUAGAGGAGGAUCUGAUGGAUAUGGCAGUGGGCGUGGAUUUGGGGAUGGCUAUAAUGGGUAUGGAGGAGGACCUGGAGGUGGCAA,0.0324
GUCCUGUGCUACACAUCGUAUGUACCGAAUCGGGGAAAAAGGGGUUUUUGGGGUGGGGAAAGUAUUAUGUUACGCCGUUCGGAUCUGCAC,-0.796
CACAGACAACACGCACCCACACAGACACAGAGGGAAGGGGUUGGGAUGGGGACAGGGUGCACAGCAAAGCGGGGUAGGACCCCAGCCCCU,0.151
UCCUGUGCUACACAUCGUAUGUACCGAAUCGGGGUUUUUGGGGAAAAAGGGGAAAGGGGAAAGUAUUAUGUUACGCCGUUCGGAUCUGCA,0.0105
AAGUCCUGUGCUACACAUCGUAUGUACCGAAUCGGAAAAAGGGAAAAAGGAAAAAGGAAAGUAUUAUGUUACGCCGUUCGGAUCUGCACU,-0.511
ACCAUGCAGGUGGGCAUCUUUGGGAAGUGGGGCAAGGGGGGAAAAGGGAGGGGGGUAACACUUUGGGAACAGGUGGUCCCAGGUCGUUUC,0.415

# Study 3 — technique: universal PBM; molecule type: double-stranded DNA, one strand shown; matrix: in vitro; concentration: 600 nM; direction: higher = stronger binding
# Target: Sal-like protein 4, full length isoform A (SALL4, Homo sapiens, UniProt Q9UJQ4, residues 1-1053)
# Sequence of UniProt Q9UJQ4 (whole entry, looked up): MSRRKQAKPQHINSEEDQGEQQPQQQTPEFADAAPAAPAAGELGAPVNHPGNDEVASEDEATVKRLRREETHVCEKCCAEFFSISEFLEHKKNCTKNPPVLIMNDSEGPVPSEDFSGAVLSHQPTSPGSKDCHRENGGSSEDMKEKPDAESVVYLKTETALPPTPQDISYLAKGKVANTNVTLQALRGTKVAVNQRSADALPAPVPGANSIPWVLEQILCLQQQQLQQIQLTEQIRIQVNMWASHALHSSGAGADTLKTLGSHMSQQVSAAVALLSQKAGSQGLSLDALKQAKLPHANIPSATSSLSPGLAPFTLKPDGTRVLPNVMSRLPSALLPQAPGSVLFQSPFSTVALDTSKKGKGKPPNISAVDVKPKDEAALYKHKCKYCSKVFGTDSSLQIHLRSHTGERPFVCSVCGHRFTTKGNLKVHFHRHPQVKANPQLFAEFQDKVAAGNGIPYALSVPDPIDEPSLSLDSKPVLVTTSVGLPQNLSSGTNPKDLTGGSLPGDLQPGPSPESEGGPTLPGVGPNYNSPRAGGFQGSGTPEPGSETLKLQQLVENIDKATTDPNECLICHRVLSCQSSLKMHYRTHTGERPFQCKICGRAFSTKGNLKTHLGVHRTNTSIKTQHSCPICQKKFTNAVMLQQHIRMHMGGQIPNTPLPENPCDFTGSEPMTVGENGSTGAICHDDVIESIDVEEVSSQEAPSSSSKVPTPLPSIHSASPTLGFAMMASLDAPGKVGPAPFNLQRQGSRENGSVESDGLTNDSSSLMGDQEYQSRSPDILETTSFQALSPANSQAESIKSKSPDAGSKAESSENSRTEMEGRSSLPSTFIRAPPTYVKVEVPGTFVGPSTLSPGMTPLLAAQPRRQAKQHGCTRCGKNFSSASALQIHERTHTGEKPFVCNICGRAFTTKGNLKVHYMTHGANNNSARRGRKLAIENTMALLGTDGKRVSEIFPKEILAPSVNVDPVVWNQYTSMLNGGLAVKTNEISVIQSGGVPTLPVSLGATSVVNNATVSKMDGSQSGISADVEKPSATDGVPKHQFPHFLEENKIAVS
# Notes: 8-mer, flanks averaged, mean of replicates
Strand,E-score
CGCCTCAC,-0.243
CTGTTGCC,-0.147
CGATATCC,-0.00135
CGTCTAGA,-0.0644
CCCTCAAA,-0.0225
ACACGTAG,-0.0955
AGTCGCAT,0.00848
CCCGCCCC,-0.0997
CTTCTTTC,0.0393
ACAAGTGG,0.0782
CCCTGACG,-0.302
CCCCTGTC,-0.279
CGATCCGC,-0.258
CAAAACCG,-0.0701
ACCTAAGG,-0.172

# Study 4 — target: UBE2S UBC core domain (UniProt Q16763); technique: yeast two-hybrid; matrix: yeast; notes: mostly zero background; reference: not given; direction: higher = stronger interaction
# B1: RNF112 RING domain (UniProt Q9ULX5); chain QPMAPRELPTCSICLERLRDPISLDCGHDFCIRCFSTHRLPGCEPPCCPECRKICKQKRGLR
# B2: TRIM15 RING domain (UniProt Q9C019); chain SLKVVHELPACTLCAGPLEDAVTIPCGHTFCRLCLPALSQMGAQSSGKILLCPLCQEEEQAETPMA
# B3: PEX2 RING domain (UniProt P28328); chain DNTLATSGKECALCGEWPTMPHTIGCEHIFCYFCAKSSFLFDVYFTCPKCGTEVHSLQPLK
# B4: RNF32 RING domain (UniProt Q9H0A6); chain SLLQGDSVQPCPICKEEFELRPQVLLSCSHVFHKACLQAFEKFTNKKTCPLCRKNQYQTRVIH
# B5: MSL2 RING domain (UniProt Q9HCI7); chain LLPYFRQSLSCCVCGHLLQDPIAPTNSTCQHYVCKTCKGKKMMMKPSCSWCKDYEQFEENKQ
# Construct (chain): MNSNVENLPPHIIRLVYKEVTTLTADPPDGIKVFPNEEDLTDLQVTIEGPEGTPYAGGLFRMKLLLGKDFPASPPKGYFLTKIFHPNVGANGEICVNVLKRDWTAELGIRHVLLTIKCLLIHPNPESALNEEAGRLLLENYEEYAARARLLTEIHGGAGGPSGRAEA
Molecule,lacZ reporter activity
B1 (RNF112 RING domain),0
B2 (TRIM15 RING domain),0
B3 (PEX2 RING domain),0
B4 (RNF32 RING domain),0
B5 (MSL2 RING domain),0
ISNDSETLEECMVCSDMKRDTLFGPCGHIATCSLCSPRVKKCLICKEQVQSRTKIE (MIB1 RING domain (UniProt Q86YT6)),0

# Study 5 — technique: protein-binding microarray; molecule type: double-stranded DNA, one strand shown; matrix: in vitro; concentration: 250 nM; notes: 60-bp whole probe; added: salmon DNA 0.4 mg/ml; reference: random background probes; direction: higher = stronger binding; shared flanks, not repeated: GCCTAGCAC … GTCTTGATTCGCTTGACGCTGCTG
# Target: Interferon regulatory factor 7, full length, phosphomimetic (IRF7, Homo sapiens, UniProt Q92985, residues 1-503, S101K/S471D/S472D/S475D/S476D/S477D/S483D/S484D/S487D)
# Sequence of UniProt Q92985 (whole entry, unmodified, looked up): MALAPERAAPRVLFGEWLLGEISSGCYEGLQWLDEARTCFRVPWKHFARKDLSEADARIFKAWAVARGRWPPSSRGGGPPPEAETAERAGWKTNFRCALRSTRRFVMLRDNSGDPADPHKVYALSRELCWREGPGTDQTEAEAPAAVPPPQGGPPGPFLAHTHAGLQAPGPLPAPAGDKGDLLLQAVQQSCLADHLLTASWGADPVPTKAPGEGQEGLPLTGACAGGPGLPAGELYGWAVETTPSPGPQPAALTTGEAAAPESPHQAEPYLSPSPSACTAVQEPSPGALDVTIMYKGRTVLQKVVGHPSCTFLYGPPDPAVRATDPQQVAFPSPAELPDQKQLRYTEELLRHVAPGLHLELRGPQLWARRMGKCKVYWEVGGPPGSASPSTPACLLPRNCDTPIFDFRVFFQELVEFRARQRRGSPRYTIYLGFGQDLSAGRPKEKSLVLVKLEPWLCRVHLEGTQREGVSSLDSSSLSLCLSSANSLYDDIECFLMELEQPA
Strand,log fluorescence
GTTGCTCTCCGGGGTCTGTGAGTGCTA,-0.284 z-score
TGGAATTTCCCTCTCCCCTCGTGCTAG,0.546 z-score
TCATGTTTCCTTCCTCTACTGTGCTAG,1.95 z-score
GACGATTTCTGACTGGAGACGTGCTAG,-0.0344 z-score
TTAGGACTGGACTATCGGTCAGTGCTA,-0.353 z-score
GACGATTTCAGGTATCGAGACGTGCTA,0.459 z-score
TCACCTATGTCATTTACACTGTGCTAG,0.143 z-score
GACGGTTTCGGGACTGTGGACGTGCTA,3.95 z-score
TTAGGTAGCCTTCTCCTTTAGTGCTAG,-0.666 z-score
GACGGGCTCCTTATCCTGACGTGCTAG,0.0353 z-score

# Study 6 — technique: RNA Bind-n-Seq; molecule type: RNA; matrix: in vitro; concentration: not given; reference: input RNA pool; direction: higher = stronger binding
# Target: RING finger protein unkempt homolog, zinc fingers 1-6, GST-SBP tag (UNK, Homo sapiens, UniProt Q9C0B0, residues 30-357)
# Sequence of UniProt Q9C0B0 (30-357, looked up): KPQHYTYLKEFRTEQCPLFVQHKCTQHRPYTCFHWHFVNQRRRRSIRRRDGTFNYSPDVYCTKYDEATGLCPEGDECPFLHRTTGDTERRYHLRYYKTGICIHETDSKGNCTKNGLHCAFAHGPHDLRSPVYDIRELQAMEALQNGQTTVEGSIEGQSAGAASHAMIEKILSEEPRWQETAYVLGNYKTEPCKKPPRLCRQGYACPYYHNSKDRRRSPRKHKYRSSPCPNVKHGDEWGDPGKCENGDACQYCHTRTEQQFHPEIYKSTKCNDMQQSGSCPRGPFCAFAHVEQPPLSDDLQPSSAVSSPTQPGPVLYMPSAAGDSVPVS
# Notes: RNA with constant flanks, human-mouse chimeric sites, ends assumed
# Shared flanks, not repeated: GGGAGUUCUACAGUCCGACGAUC … CAACAGAGGAUUGAGCAUCA
Strand,bound/input enrichment
AAUUUCCGCAACUGUUUUUUAGACAUUCACAUCAGACUUACAGAGCAUUGGGCCUCUUUCUAGGUUUGUGUUAUUUCUCAGCUAUGGAUAUGAUCAAAUGAGAACACUGCUUAACUAAUG,0.296 ratio
AUGGAACAUUUUGAUGCGUCACUCAGUACCUAUUUCAAGGCAUUGCUGGGCCCCCGAGAUACAAGAGUCAAAGGAUGGUUCCUCCUGGACAAUUACAUCCCUACGUUUGUCUGUUCUGUU,0.131 ratio
CUGUGCGGGUGACUGUCCUGGAGUGGCUGGAGUUCCCCCGGAACCUGGGCCAGACUAAUUUUAGAAAAUGCCAAGUAGGAAGUUUGUUGAGGGUGAAGUGGUCAGAGGCCGAUGGCCUGG,1.75 ratio
GGCCUGGGACCGUCCUGGGCUAGUACAAAUAGCGGCAGUGGAGGCUCAGAGGAAAGUUUUGUUAGUGGAGGCAGUGGUAGAGGCCGUCAUGUACGGUCCUUUACUCGAUAGAUGUGUUCU,0.71 ratio
GAAUCCUACUCAGGCGGAUUUUGCAACACCAAGCUCAAGUAGCAAUUAUCUUAGUCACAGUAGGGUAGUUUUGGGGCUCUGUGGCCAGGGUUUUAUUCACAUGCAGGUUUUGAAAAUGUA,1.67 ratio
AAAGUGGACUAUGGCGAAUACAUGGAUAAAAAUAAUGUGAGGCGGCAAGCAACAACAAUCAUAGCUGAUAACAUUAUAUUUCUGAGUGACCAGACAAAAGAAAAGGCAUAGAACGGAUGA,1.49 ratio

# Study 7 — technique: RNA Bind-n-Seq; molecule type: RNA; matrix: in vitro; concentration: 365 nM; reference: no-protein control; direction: higher = stronger binding
# Target: RNA binding protein fox-1 homolog 2, RRM domain, GST-SBP tag (RBFOX2, Homo sapiens, UniProt O43251-10, residues 100-194)
# Notes: natural RNA segment, single round, ends assumed
# Shared flanks, not repeated: GGGAGUUCUACAGUCCGACGAUC … UGGAAUUCUCGGGUGCCAA
# Residues (chain): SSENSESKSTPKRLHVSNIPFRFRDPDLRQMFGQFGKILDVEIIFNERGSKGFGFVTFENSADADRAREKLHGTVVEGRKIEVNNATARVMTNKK
Strand,RBNS enrichment (R)
UUUUCGGGAGUCAGGGGAGGAGAUGACUUUGCUUCUGUGCACAGCCCCGUCUUCCAGGAGCCACAACUCAGAAGAAAAGGGUGCUCAGACUUUUGUUAUACACAUUUGCU,0.611
AGCCCGUGCUCUUGAGAGAGAGCGAGCUUCGGGACCCUAACUGUAUGGACCAUCUUCAAACUGCUGGAUCCCCUGUAUAUGUUGAAUGAUGCCUGGUGGUCUUACAGCAU,4.3
UUCCAUCUAAAAAACCCUCGACCCGAAACCCUCACCAGAUAAACUACAGUUUGUUUAGGAGGCCCUGACCUUCAUGGUGUCUUUGAAGCCCAACCACUCGGUUUCCUUCG,0.351
GGAAGUCCCUUUUCCUUGGACUGGUAUCUUUUCAACUAUUGUUUUAUCCUGUCUUUGGGGGCAAUGUGUCAAAAGUCCCCUCAGGAAUUUUCAGAGGAAAGAACAUUUUA,0.347
ACCAACCUUACAACCACAAGGGGGAAGCAGAGAGUCAAGCAUGCAGACAGGCAGCUUUCCCAGCUGGUUAAAGAAGCUGGGCCCUUUUCCUCCCACACCCUGCCAGCCUU,26.7
GCUGUCUUCAGAACUCUUGGAAAUCUUUACACAUGCGAGUGCUAACCACUUUGAGCAAGGCUGCCUUCUUGUAGAUGACUUGCUGUUCUUUAUGACAGGGAUCAGUGGCA,0.778
AGUCUUAUGGAUACGAAGGGUACAUUUUUCAUAAUGAUUCCUUUAUAUUUUCACUUUGUGUCAUUGCAGAAUUUUAGACUCUCAUUCACAAUGAAAAGUUUAUUUUAAAC,0.472

# Study 8 — technique: protein-binding microarray; molecule type: double-stranded DNA, one strand shown; matrix: in vitro; concentration: not given; direction: higher = stronger binding
# Target: Max-binding protein MNT, bHLH-zipper, MAX partner unstated (MNT, Homo sapiens, UniProt Q99583, residues 220-300)
# Notes: k-mer, scored over probes, only values ≥0.25
# Target sequence (chain): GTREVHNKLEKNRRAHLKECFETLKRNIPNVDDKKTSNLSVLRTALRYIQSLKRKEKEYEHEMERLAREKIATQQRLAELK
Strand,E-score
ACGTGGGC,0.443
AATATGGC,0.293
CATCGTGG,0.346
CCCGCCCA,0.422
CCCACACG,0.356
CCTTCCAC,0.271
TCCCCACA,0.294
ACGTGTCA,0.425
CCATGCAA,0.269
CCTCCTCC,0.258
CACCCCAG,0.304
TCGCCCCA,0.313
CGTGGACA,0.38
